Published values gathered from unrelated publications.
Lines come from different studies, so protocols differ. Values joined by “and” are separate records of one study, mostly repeats; a detail may differ. ± marks the error that the study gave.

Structure (SMILES)	test	system	setting	scale	endpoint	value
OC[C@H]1OC(O)[C@H]([18F])[C@@H](O)[C@@H]1O (stereo partly shown)	PET	NSCLC and melanoma patients, primary tumours	dose not given, median of five patients		SUVmean	4.82
C[C@H]1C[C@H]2CSC(N)=N[C@@]2(c2nc(NC(=O)c3ccc(OC(F)F)cn3)cs2)CO1	measured: Aβx-40	healthy adults, plasma	275 mg once daily, day 10	reference: placebo	percent change from baseline	-74.1%
CCCCCCCCCCCC1NCCc2cc(O)c(O)cc21 (stereo not shown)	ferrozine	cell-free	100 µM, DMSO solvent		Fe2+ chelation	22.9 ± 4.27%
O=C(O)/C=C/c1ccc(Cn2ccnc2)cc1		rat, MCAO/R model, platelet-rich plasma	intravenous, dose not given, 4 h, together with: ADP 10 µM		platelet aggregation	29.6%
COc1cc(-c2ccccc2)ncc1C(=O)Nc1ccc2c(=O)[nH]c(-c3ccc(C(C)(C)O)cc3)nc2c1	RNA-seq GSEA, measured: HALLMARK_UNFOLDED_PROTEIN_RESPONSE	organoids, small intestinal, Apc Q1405X, mouse	dose not given, knockout organoids	reference: DMSO, direction not given	normalized enrichment score	-1.78
O=C(CCCCCCc1ccccc1)c1ncc(-c2ccccn2)o1		mouse, chronic constriction injury, ipsilateral paw	i.p., 30 mg/kg, 1, 3, 6 h		cold allodynia	decreased
O=C(OC(C(F)(F)F)C(F)(F)F)N1CCN(Cc2cccc(Oc3ccccc3)c2)CC1	PET	rhesus monkey, pons	intravenous, 0.03 mg/kg, pretreatment blocking, together with: [18F]T-401		tracer distribution volume	1.89 mL/cm3
Cc1ccc(C(=O)Nc2ccnc(S(N)(=O)=O)c2)c(N2CCCC(F)(F)CC2)n1		rhesus macaque, plasma	concentration not given, minimum for significant effect		total plasma concentration	~3 µM
Cc1noc(C)c1-c1cc(C(O)(c2ccccn2)c2ccccn2)c2nc(C3CC3)[nH]c2c1	measured: HEXIM1 expression	human, peripheral blood	0.6 mg, day 1, 1599 study		maximum induction	3.7%
COc1cc(Nc2ncc3c(n2)-c2ccc(Cl)cc2C(c2c(F)cccc2OC)=NC3)ccc1C(=O)O		mouse, OS-1 osteosarcoma xenograft	10.4 mg/kg	direction not given	median response score	2
C[C@H](Oc1ccc(Br)cc1-c1ccon1)C(=O)O	response peak	human, tibialis anterior muscle	200 mg, 30 Hz+30 s		difference from placebo	4.97%
CC(C)NCC(O)c1ccc(O)c(O)c1 (stereo not shown)		ventricular cardiomyocytes, C57BL/6 mouse	dose not given, 0.648 s		sarcomere length	1.72 µm
c1ccc(-c2n[nH]cc2-c2ccnc3ccccc23)nc1	kinase binding, competitor, MIB/MS competition, measured: KIN3	Candida albicans cell lysate	100 nM	reference: DMSO	log2 fold change	1.3
CN(C(=O)n1cnc(-c2ccc[n+]([O-])c2)c1)C1CCCCC1		mice, formalin paw test	3 mg/kg, late phase, together with: anandamide 5 mg/kg i.p.	reference: vehicle, direction not given	change in licking score	-91%
COc1cccc(C2NCCc3cc(O)c(O)cc32)c1O (stereo not shown)	ferrozine	cell-free	100 µM, DMSO solvent		Fe2+ chelation	92.7 ± 1.56%
OC(CCN1CCCCC1)(c1ccccc1)C1CC2C=CC1C2 (stereo not shown)	resting-state EEG	healthy elderly humans	oral, 4 mg, eyes closed, LS mean		EEG Beta1-power Pz-O1	4.2 µV²
CCO[C@H]1CCN(Cc2c(OC)cc(C)c3[nH]ccc23)[C@H](c2ccc(C(=O)O)cc2)C1		PNH patients, blood	oral, 50 mg then 200 mg, week 2, mean percent change	reference: baseline	PNH RBC clone size	146%
CSCCNc1nc(SCCC(F)(F)F)nc2c1ncn2[C@@H]1O[C@H](COP(=O)(O)OP(=O)(O)C(Cl)(Cl)P(=O)(O)O)[C@@H](O)[C@H]1O	platelet aggregation, light transmission aggregometry	human patients, platelet-rich plasma	dose not given, 3 h, together with: TRAP 5 µM		patients with IPA above 90%	5.4%
Cc1cc([C@H]2C[C@H]3[C@@H](CF)SC(N)=N[C@@]3(c3ccc(F)cc3F)CO2)on1	measured: Aβx-40	wild-type mouse, brain	subcutaneous, 30 mg/kg, 14 h		brain Aβ40 level	2.92 ng/g
COc1cc2cc(-c3ccc(CC(=O)Nc4cc(C(C)(C)C(F)(F)F)no4)cn3)cnc2cc1OC	RECIST v1.1	RET-altered advanced solid tumour patients	oral, 150 mg once daily, phase I		partial response as best response	25%
CN(C)C(=O)Oc1cccc([N+](C)(C)C)c1	neuromuscular block reversal	rat	dose not given, 6.5 (unit not given), together with: cisatracurium	reference: T1 twitch	train-of-four ratio	48.1
Cc1nn(-c2nc3c(F)cc(F)cc3s2)c(O)c1C(c1ccc(C(F)(F)F)cc1)c1c(C)nn(-c2nc3c(F)cc(F)cc3s2)c1O	measured: parenchymal necrosis	mouse, cerulein-induced acute pancreatitis	25 mg/kg	direction not given	histology score	0 and 3

Structure (SMILES)	test	system	setting	scale	endpoint	value
N#Cc1ccc2c(c1)[C@H]1CCCN(C(=O)c3ccc4[nH]cnc4c3)[C@H]1C2		human, plasma	20 mg, day 15, 360 h	reference: placebo and baseline	change in fasting insulin	-37.7%
N#Cc1ccn2c(-c3ccncc3)c(-c3ccc(F)cc3)nc2c1	kinase binding, competitor, MIB/MS competition, measured: KIN3	Candida albicans cell lysate	10 µM	reference: DMSO	log2 fold change	-0.195
CC1(C)CCC2(CC1)N[C@@H](C(=O)N[C@@H]1CC[C@@H](C(N)=O)OC1)[C@H](c1ccnc(Cl)c1F)[C@]21C(=O)Nc2cc(Cl)ccc21		human, solid tumours	120 mg/day, RECIST	reference: patients	stable disease	33.3%
O=C(O)CNC(=O)Cc1ccccc1		ventricular cardiomyocytes, C57BL/6 mouse	dose not given, 0.768 s		sarcomere length	1.72 µm
C[C@@H]1CCC[C@H](n2cnc(-c3cc(Cl)ccc3-n3cc(Cl)nn3)cc2=O)c2cc(ccn2)-c2c(cnn2C(F)F)NC1=O		pooled normal human plasma	IC1.2× aPTT, Actin FS reagent		concentration for aPTT prolongation	30 nM
N#Cc1ccc2c(-c3ccncc3)c(-c3ccc(F)cc3)nn2c1	kinase binding, competitor, MIB/MS competition, measured: SAK1	Candida albicans cell lysate	1 µM	reference: DMSO	log2 fold change	-0.142
O=C(NCc1ccc(CNS(=O)(=O)c2ccccc2)cc1)c1ccccc1Cl	xylene-induced ear edema	mouse	intraperitoneal, 10 mg/kg		ear edema	no effect
O=C1O[C@H]([C@@H](O)CO)C(O)=C1O	nitric oxide scavenging		40 µM		inhibition	28.6%
CC1(C)CCC(c2ccc(Cl)cc2)=C(CN2CCN(c3ccc(C(=O)NS(=O)(=O)c4ccc(N[C@H](CCN5CCOCC5)CSc5ccccc5)c(S(=O)(=O)C(F)(F)F)c4)cc3)CC2)C1	cell kill, PI exclusion flow cytometry	neoplastic B cells, human, thawed lymph node	24 h		EC50	1.47 µM
N#Cc1ccc2c(c1)[C@H]1CCCN(C(=O)c3ccc4[nH]cnc4c3)[C@H]1C2	measured: 2 h postprandial glucose	human, Phase II trial	oral, 20 mg once daily, day 28, adjusted mean, SE		change from baseline	17.9 mg/dL
NC(=O)c1cnc2[nH]ccc2c1N[C@@H]1[C@@H]2CC3C[C@H]1C[C@@](O)(C3)C2	regulatory T cells, flow cytometry	Japanese humans, peripheral blood	200 mg single dose	reference: baseline	percent change	0.48%
C[C@H](NC(=O)c1c(C(F)F)nn(C)c1Oc1cccc(C(F)(F)F)c1)c1ccc(C(=O)O)cc1	irRECIST	human, advanced tumours	125 mg	best overall response	stable disease	25%
Cc1n[nH]c2ccc(-c3cc(OC[C@@H](N)Cc4ccccc4)cnc3-c3ccoc3)cc12	kinase binding, competitor, MIB/MS competition, measured: RCK2	Candida albicans cell lysate	100 nM	reference: DMSO	log2 fold change	-0.0134
COc1ccccc1[C@H](Cn1c(=O)n(C(C)(C)C(=O)O)c(=O)c2c(C)c(-c3ncco3)sc21)OC1CCOCC1	[1-13C]acetate infusion, isotopomer analysis	overweight or obese healthy men, plasma VLDL-TG palmitate	oral, 20 mg single dose, 2 h post-dose, together with: oral fructose		fractional hepatic DNL	8.38 % new palmitate
Cc1ccc(NC(=O)c2ccc(CN3CCN(C)CC3)cc2)cc1Nc1nccc(-c2cccnc2)n1	platelet aggregation	platelet-rich plasma	1 µM, DMSO 130.6, together with: collagen 2 mg/mL		lag time	145 s
NCC(=O)Nc1cncc(-c2nn3c(=O)cc(N4CCNCC4)nc3s2)c1	ADP-induced platelet aggregation, light transmission aggregometry	human stable CAD patients on aspirin, platelets ex vivo	0.04 mg/kg, 180 min post dose, together with: 20 µM ADP	reference: placebo difference	inhibition of platelet aggregation	-9.05%
Fc1cccc2c1C#Cc1cccc(F)c1C#C2	UV spectroscopy	methanol	room temperature, together with: benzyl azide		second-order rate constant	0.00372 M⁻¹ s⁻¹ and 0.00363 M⁻¹ s⁻¹
CN[C@@H]1COc2c(S(=O)(=O)NC(=O)Nc3c4c(cc5c3CCC5)CCC4)cnn2C1	measured: IL-18	human participants, whole blood ex vivo	150 mg single dose, 8 h, IL-18, circulating, adjusted for, together with: LPS/ATP	reference: baseline	inhibition	94.4%
CO[C@H]1CC[C@H](N2C(=O)CNc3ncc(-c4ccc(C(C)(C)O)nc4)nc32)CC1	flow cytometry	stimulated monocytes, human, blood	30 mg single dose, 3 h, median	reference: baseline	pAKT change from baseline	-56.5%
C=CCn1c(=O)c2cnc(Nc3ccc(N4CCN(C)CC4)cc3)nc2n1-c1ccc2c(n1)[C@@](O)(CC)CC2		MIA PaCa-2, BALB/c nude mice, xenograft	oral, 80 mg/kg once daily, day 28	reference: vehicle	tumour growth inhibition	32.6%
Cn1cc(Nc2nccc(-c3ccc4c(c3)CN(C3COC3)CC[C@H]4NC(=O)c3cn(C(C)(C)C)nn3)n2)cn1	measured: vitamin C antioxidant action	splenic B cells, Mus musculus	30 mg/kg, together with: in vivo anti-IgD activation	reference: vehicle, direction not given	pathway activation z-score	-0.905

Some of these lines once more:
Structure (SMILES)	test	system	setting	scale	endpoint	value
N#Cc1ccc2c(c1)[C@H]1CCCN(C(=O)c3ccc4[nH]cnc4c3)[C@H]1C2		human, plasma	20 mg, day 15, 360 h	reference: placebo and baseline	change in fasting insulin	-37.7%
N#Cc1ccn2c(-c3ccncc3)c(-c3ccc(F)cc3)nc2c1	kinase binding, competitor, MIB/MS competition, measured: KIN3	Candida albicans cell lysate	10 µM	reference: DMSO	log2 fold change	-0.195
CC1(C)CCC2(CC1)N[C@@H](C(=O)N[C@@H]1CC[C@@H](C(N)=O)OC1)[C@H](c1ccnc(Cl)c1F)[C@]21C(=O)Nc2cc(Cl)ccc21		human, solid tumours	120 mg/day, RECIST	reference: patients	stable disease	33.3%
O=C(O)CNC(=O)Cc1ccccc1		ventricular cardiomyocytes, C57BL/6 mouse	dose not given, 0.768 s		sarcomere length	1.72 µm
C[C@@H]1CCC[C@H](n2cnc(-c3cc(Cl)ccc3-n3cc(Cl)nn3)cc2=O)c2cc(ccn2)-c2c(cnn2C(F)F)NC1=O		pooled normal human plasma	IC1.2× aPTT, Actin FS reagent		concentration for aPTT prolongation	30 nM
N#Cc1ccc2c(-c3ccncc3)c(-c3ccc(F)cc3)nn2c1	kinase binding, competitor, MIB/MS competition, measured: SAK1	Candida albicans cell lysate	1 µM	reference: DMSO	log2 fold change	-0.142
